Published values collected from several papers.
Compare with care: the assays were run in different laboratories. ± gives the spread as reported.

SMILES | cell line | test | conditions | IC50
CC(C)C[C@H](NC(=O)[C@H](CCCCN)NC(=O)[C@H](CC(C)C)NC(=O)[C@H](CC(C)C)NC(=O)[C@H](CCCCN)NC(=O)[C@H](CCCCN)NC(=O)[C@H](CC(C)C)NC(=O)[C@H](CC(C)C)NC(=O)[C@H](CCCCN)NC(=O)[C@H](CC(C)C)NC(=O)[C@H](CC(C)C)NC(=O)[C@H](CCCCN)NC(=O)[C@H](CCCCN)NC(=O)[C@H](CC(C)C)NC(=O)[C@@H](N)CSSC[C@H](N)C(=O)N[C@@H](CC(C)C)C(=O)N[C@@H](Cc1c[nH]cn1)C(=O)N[C@@H](CCC(=O)O)C(=O)N[C@@H](CC(C)C)C(=O)N[C@@H](CC(C)C)C(=O)N[C@@H](CCC(=O)O)C(=O)N[C@@H](Cc1c[nH]cn1)C(=O)N[C@@H](CC(C)C)C(=O)N[C@@H](Cc1c[nH]cn1)C(=O)N[C@@H](CCC(=O)O)C(=O)N[C@@H](CC(C)C)C(=O)N[C@@H](CC(C)C)C(=O)N[C@@H](CCC(=O)O)C(=O)N[C@@H](Cc1c[nH]cn1)C(N)=O)C(N)=O | 4T1 | cell growth or viability, MTT | pH 6 | 13.1 µM
CCOC(=O)[C@@H]1Cc2c(cc([N+](=O)[O-])cc2[N+](=O)[O-])[C@@H](O)[C@@]12C(=O)Nc1ccc(Br)cc12 | U-87 MG | cell growth or viability, MTT | 24 h | 28.6 µM
CO[C@@H]1[C@@H](O)[C@H](O[C@H]2CC[C@@]3(C)[C@H](CC[C@@H]4[C@@H]3CC[C@]3(C)[C@@H](C5=CC(=O)OC5)[C@@H](O)C[C@]43O)C2)O[C@H](C)[C@@H]1O[C@@H]1O[C@H](CO)[C@@H](O)[C@H](O)[C@H]1O | BEAS-2B | cell growth or viability, MTT | 48 h | 1.47 µM
CC(C)C[C@H](NC(=O)[C@H](CCCCN)NC(=O)[C@H](CC(C)C)NC(=O)[C@H](CC(C)C)NC(=O)[C@H](CCCCN)NC(=O)[C@H](CCCCN)NC(=O)[C@H](CC(C)C)NC(=O)[C@H](CC(C)C)NC(=O)[C@H](CCCCN)NC(=O)[C@H](CC(C)C)NC(=O)[C@H](CC(C)C)NC(=O)[C@H](CCCCN)NC(=O)[C@H](CCCCN)NC(=O)[C@H](CC(C)C)NC(=O)[C@@H](N)CSSC[C@H](N)C(=O)N[C@@H](CC(C)C)C(=O)N[C@@H](CCC(=O)O)C(=O)N[C@@H](Cc1c[nH]cn1)C(=O)N[C@@H](CC(C)C)C(=O)N[C@@H](CC(C)C)C(=O)N[C@@H](CCC(=O)O)C(=O)N[C@@H](Cc1c[nH]cn1)C(=O)N[C@@H](CC(C)C)C(=O)N[C@@H](CCC(=O)O)C(=O)N[C@@H](Cc1c[nH]cn1)C(=O)N[C@@H](CC(C)C)C(=O)N[C@@H](CC(C)C)C(=O)N[C@@H](CCC(=O)O)C(=O)N[C@@H](Cc1c[nH]cn1)C(N)=O)C(N)=O | 4T1 | cell growth or viability, MTT | pH 7.4 | > 100 µM
C[C@H]1C(OCCCCCCCCCCC[P+](c2ccccc2)(c2ccccc2)c2ccccc2)O[C@@H]2O[C@@]3(C)CCC4[C@H](C)CCC1[C@]42OO3 (some centres unmarked) | T24 | cell growth or viability, MTT | 72 h | 0.153 µM
C[C@@H](O)[C@H](NC(=O)[C@H](CCCNC(=N)N)NC(=O)[C@H](CCCNC(=N)N)NC(=O)[C@H](CCCNC(=N)N)NC(=O)[C@@H]1CCCN1C(=O)[C@@H](N)CO)C(=O)N1CCC[C@H]1C(=O)N[C@@H](CO)C(=O)N1CCC[C@H]1C(=O)N[C@@H](CCCNC(=N)N)C(=O)N[C@@H](CCCNC(=N)N)C(=O)N[C@@H](CCCNC(=N)N)C(=O)N[C@@H](CCCNC(=N)N)C(=O)N[C@@H](CO)C(=O)N[C@@H](CCC(N)=O)C(=O)N[C@@H](CO)C(=O)N1CCC[C@H]1C(=O)N[C@@H](CCCNC(=N)N)C(=O)N[C@@H](CCCNC(=N)N)C(=O)N[C@@H](CCCNC(=N)N)C(N)=O | Hs68 | cell viability, CellTiter-Blue | 24 h, serum-free medium | > 100 µM
Cc1ccnc(-c2cc(C)ccn2)c1.[C-]#[O+].[C-]#[O+].[C-]#[O+].[Re+] | MRC-5 | cell viability |  | 10.7 ± 0.5 µM
CNC(=S)N/N=C/c1ccc(OCc2ccccc2)cc1 | IMR-32 | cell growth or viability, MTT | 24 h | 14.8 µg/mL
C[C@H]1[C@H](OC(=O)CCC(=O)OCCc2ccc(O)cc2)O[C@@H]2O[C@@]3(C)CC[C@H]4[C@H](C)CC[C@@H]1[C@@]24OO3 | SK-MEL3 | cell viability, MTT | 24 h, without deferoxamine | 2.66 ± 0.9 µM
CCC(C)C1OC(=O)C(NC(=O)c2cccc(NC=O)c2O)C(C)OC(=O)C(C(C)CC)OC(=O)C(C)(C)C(O)C(Cc2ccccc2)OC1=O (centres unmarked) | HCT-8 | cell growth or viability, CCK-8 | 72 h | 0.0118 µM
CCCCc1ccc(S(=O)(=O)N2CC2C(=O)OC)cc1 (centres unmarked) | HT-1080 | cell growth or viability, MTT | 48 h | 104 µM
[Cl][Ag].[Se]=c1n(C2CCCCC2)ccn1C1CCCCC1 | H157 lung carcinoma cells | cell viability, MTT | 72 h | 4.8 ± 0.9 µM
CCc1c2c(nc3ccc(OC(=O)CCC(=O)O)cc13)-c1cc3c(c(=O)n1C2)COC(=O)[C@]3(O)CC | CT26 | cell growth or viability, MTT | 48 h | 0.566 µM
C#CCSc1nc(Sc2nnnn2C)c2nnn(Cc3ccccc3)c2n1 | U-937 | cell growth or viability, MTS | 6 days | 2.31 µM
Cc1ccc(C(C)C)cc1.[Cl][Ru+].[O-]c1ccccc1C=NCCNc1ccnc2cc(Cl)ccc12 | CHO | cytotoxicity, MTT |  | 89 ± 19 µM
CCOC(=O)[C@H]1Cc2c(cc([N+](=O)[O-])cc2[N+](=O)[O-])[C@@H](O)[C@@]12C(=O)Nc1ccccc12 | U-87 MG | cell growth or viability, MTT | 24 h | 25.3 µM
CN(C)C1=[S+][Au-]2([S]1)[c]1ccccc1-c1cccc[c]12 | UWB1289 | cell growth or viability, MTT | 72 h | > 100 µM
CC1(C)OB(c2ccc(COC(=O)N(Cc3cccc(CN4CCCCC4)c3)[c-]3cccc3)cc2)OC1(C)C.[Fe+2].c1cc[cH-]c1 | BL2 | cell growth or viability, MTT | 48 h | 3.9 µM
O=C1CC2(C1)C(=O)[O][Pt]1([Cl])([O]C(=O)C(F)(F)F)([NH][C@@H]3CCCC[C@H]3[NH]1)[O]C2=O | SGC-7901 | cell growth or viability, MTT |  | 8.73 µM
COc1cc(C=CC(=O)CC(=O)C=Cc2ccc(OC(=O)CCC(=O)OC3OC4OC5(C)CCC6C(C)CCC(C3C)C46OO5)c(OC)c2)ccc1OC(=O)CCC(=O)OC1OC2OC3(C)CCC4C(C)CCC(C1C)C24OO3 (centres unmarked) | SK-MEL-24 | cell viability, MTT | 24 h, with: deferoxamine 20 µM, 1 h before | 3.3 ± 0.8 µM
CN(C)CC1C(=O)OC2C1CCC1(C)CC1CCC1(C)OC21 (centres unmarked) | U-87 MG | cell growth or viability, resazurin |  | 10.5 µM
OC[C@H]1[C@@H](O)[C@@H](O)CN1Cc1ccc(I)cc1 | HCT116 p53-/- | MTS | 72 h | > 200 µM
[CH3][Ti+2][O]C(=O)c1ccc([S][Au][PH](c2ccccc2)(c2ccccc2)c2ccccc2)cc1.c1cc[cH-]c1.c1cc[cH-]c1 | renal proximal tubule cells | cytotoxicity, XTT | 72 h | 2.67 ± 0.12 µM

Repeated from above:
SMILES | cell line | test | conditions | IC50
CCOC(=O)[C@H]1Cc2c(cc([N+](=O)[O-])cc2[N+](=O)[O-])[C@@H](O)[C@@]12C(=O)Nc1ccccc12 | U-87 MG | cell growth or viability, MTT | 24 h | 25.3 µM
CN(C)C1=[S+][Au-]2([S]1)[c]1ccccc1-c1cccc[c]12 | UWB1289 | cell growth or viability, MTT | 72 h | > 100 µM
CC1(C)OB(c2ccc(COC(=O)N(Cc3cccc(CN4CCCCC4)c3)[c-]3cccc3)cc2)OC1(C)C.[Fe+2].c1cc[cH-]c1 | BL2 | cell growth or viability, MTT | 48 h | 3.9 µM
O=C1CC2(C1)C(=O)[O][Pt]1([Cl])([O]C(=O)C(F)(F)F)([NH][C@@H]3CCCC[C@H]3[NH]1)[O]C2=O | SGC-7901 | cell growth or viability, MTT |  | 8.73 µM
